Published values gathered from unrelated publications.
Numbered parts are unrelated; each lists some results of a single study.

Study 1 — method: RNA Bind-n-Seq; form: RNA; matrix: in vitro; concentration: 200 nM; setting: whole 134-nt RNA, ends assumed; together with: 150 mM KCl; relative to: input library; reading: higher = stronger binding; quantity: log2 enrichment
Target: Ras GTPase-activating protein-binding protein 1, full length (G3BP1, Homo sapiens, UniProt Q13283)
Sequence of UniProt Q13283 (whole entry, looked up): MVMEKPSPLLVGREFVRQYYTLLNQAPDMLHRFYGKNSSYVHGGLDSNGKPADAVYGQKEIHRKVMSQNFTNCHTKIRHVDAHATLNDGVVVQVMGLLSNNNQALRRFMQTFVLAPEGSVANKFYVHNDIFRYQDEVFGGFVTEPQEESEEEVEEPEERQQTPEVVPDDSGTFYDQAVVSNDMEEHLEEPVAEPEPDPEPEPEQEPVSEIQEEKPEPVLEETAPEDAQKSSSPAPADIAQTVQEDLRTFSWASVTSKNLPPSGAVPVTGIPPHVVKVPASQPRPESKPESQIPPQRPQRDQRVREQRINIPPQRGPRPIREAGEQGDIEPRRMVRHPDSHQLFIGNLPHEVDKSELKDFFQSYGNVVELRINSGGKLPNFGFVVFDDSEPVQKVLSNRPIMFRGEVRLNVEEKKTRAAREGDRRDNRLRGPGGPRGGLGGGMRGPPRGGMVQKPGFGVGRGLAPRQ
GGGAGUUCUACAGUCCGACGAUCUCCCCCCUAUUGGAAGUAAAGGGGAACAUAGAACUGAAGAGACCUCUGAUUAAGGCCCCUUCCCAGCUGCCUCUCUCAGGAAGCAGACUCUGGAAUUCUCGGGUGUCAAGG: -0.454
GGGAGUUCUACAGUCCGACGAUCUUAGAAGAAGUGGAAAGGAAAAAACGCCAAAGGGAGUUGGAAAUUGAAGAACGAGAACGGCGUAGAGAGGAAGAGAGAAGACUUGGCGAUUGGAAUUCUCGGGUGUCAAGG: 0.573
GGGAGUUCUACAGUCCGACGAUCCCUGUGCUACACAUCGUAUGUACCGAAUCGGGGAAAAAAGGAAAAAAGGGAAAAAAGGGGAAAGUAUUAUGUUACGCCGUUCGGAUCUGCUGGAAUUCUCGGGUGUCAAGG: -0.476
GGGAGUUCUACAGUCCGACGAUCUCCUGUGCUACACAUCGUAUGUACCGAAUCAAAUUUUUUUAAAUUUUUUUAAAUUUAAAAAAGUAUUAUGUUACGCCGUUCGGAUCUGCAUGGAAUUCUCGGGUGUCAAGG: -0.793
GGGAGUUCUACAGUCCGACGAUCCCUGUGCUACACAUCGUAUGUACCGAAUCGGGUUUUUUGGGGUUUUUUGGGGUUUUUUGGAAAGUAUUAUGUUACGCCGUUCGGAUCUGCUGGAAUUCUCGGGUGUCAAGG: -0.559
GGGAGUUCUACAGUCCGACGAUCUCCUGUGCUACACAUCGUAUGUACCGAAUCGGGGUUUUUGGGGAAAAAAAGGGGUGGGGAAAGUAUUAUGUUACGCCGUUCGGAUCUGCAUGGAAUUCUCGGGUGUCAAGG: 0.764
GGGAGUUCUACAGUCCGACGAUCUAACUUUAGAGGAGGAUCUGAUGGAUAUGGCAGUGGACGUGGAUUUGGGGACGGCUAUAAUGGGUAUGGAGGAGGACCUGGAGGUGGCAAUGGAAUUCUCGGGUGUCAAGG: 0.231
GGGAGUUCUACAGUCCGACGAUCGUCCUGUGCUACACAUCGUAUGUACCGAAUCGGGAGGGAAAAAAAGGGUUUUUUUGGGAAAGUAUUAUGUUACGCCGUUCGGAUCUGCACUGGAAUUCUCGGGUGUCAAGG: -0.44
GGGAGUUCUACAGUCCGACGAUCCACAGACAACACGCACCCACACAGACACAGAGGGAAGGGGUUGGGAUGGGGACAGGGUGCACUGCAGGGCGGGGUAGGACCCCAGCCCCUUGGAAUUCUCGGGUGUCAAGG: 1.68
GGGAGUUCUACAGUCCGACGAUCCCUGUGCUACACAUCGUAUGUACCGAAUCGGAAAAAAAGGAAAAAAAGGGAAAAAAAGGGGAAAGUAUUAUGUUACGCCGUUCGGAUCUGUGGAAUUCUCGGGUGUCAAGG: -0.938

Study 2 — method: universal PBM; form: double-stranded DNA, one strand shown; matrix: in vitro; concentration: not given; reading: higher = stronger binding; quantity: E-score
Target: Sal-like protein 4, full length isoform B (SALL4, Homo sapiens, UniProt Q9UJQ4-2, residues 1-616)
Setting: 8-mer, flanks averaged, mean of replicates
ACGGCGTG: -0.199
AGTGCCAT: 0.0314
CTGAAAAG: -0.0505
CTTCTCAC: -0.0697
CGTAGATC: -0.00542
ATCTTTCC: 0.0792
CGTACCGA: -0.19
AACGGGTA: 0.0813
GGGACGAA: -0.153
CTGGCTAC: -0.0797
AGGAAGAG: -0.0752
ATAACTTC: 0.255
ATGTGAAC: 0.102
GCGGTAGA: -0.0935
CGTGTGGC: -0.0831

Study 3 — method: RNA Bind-n-Seq; form: RNA; matrix: in vitro; concentration: not given; relative to: input RNA pool; reading: higher = stronger binding; quantity: bound/input enrichment
Target: RING finger protein unkempt homolog, zinc fingers 1-6, GST-SBP tag (UNK, Homo sapiens, UniProt Q9C0B0, residues 30-357)
Setting: RNA with constant flanks, human and mouse sites, ends assumed
Construct (chain): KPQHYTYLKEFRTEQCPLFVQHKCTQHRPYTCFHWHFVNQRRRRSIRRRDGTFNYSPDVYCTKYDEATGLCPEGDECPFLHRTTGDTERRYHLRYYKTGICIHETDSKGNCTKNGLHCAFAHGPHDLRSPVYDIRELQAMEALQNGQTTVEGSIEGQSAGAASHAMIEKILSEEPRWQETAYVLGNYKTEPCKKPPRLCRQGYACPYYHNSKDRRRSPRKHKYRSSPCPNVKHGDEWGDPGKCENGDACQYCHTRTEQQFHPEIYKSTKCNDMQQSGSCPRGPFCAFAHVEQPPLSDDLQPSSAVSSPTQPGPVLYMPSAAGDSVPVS
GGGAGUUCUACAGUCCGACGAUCCCCAGUUGUGACAUGAUGGAACUAAGGCGCCGUUAUCAGAACUUAUAUAUUCCUAGUGACUUUUUUGAUGCUCAGUUUACAUGGGUGGAUGCUUUCCCUUUGUCAAGACCAUUUCAACUGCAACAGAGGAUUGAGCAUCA: 6.02 ratio
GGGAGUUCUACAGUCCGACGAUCAUAUUAAACUGGUAUUUUCAAACAAUAGGAAACUUUUUUUUUUUUUUUUUUUUUUUACAGUUUAGUGUAUCUGGUUUCUACAUGGAAGACUAAACUCAUGCUUAUUGCUAAAUGUGGUCUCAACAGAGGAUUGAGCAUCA: 11.9 ratio
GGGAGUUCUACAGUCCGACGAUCAUCUAGGCACUCAAGAUCUCGGAGCAGGCACAGAUUGUCUAGAUCAAGAAGUCGUCAUUCAAGCAUUUCUCCUAGCACACUAACUCUGAAGAGUAGCUUGGCAGCUGAAUUGAACAAGAACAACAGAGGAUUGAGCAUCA: 0.0935 ratio
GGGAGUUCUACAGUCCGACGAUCUGUUACCAAAAUCACUCUAGAGUCUUUUCUCGCGUGGAAGAAGAGGAAAAGACAAGAAAAGAUUGAUAAACUUGAACAAGAUAUGGAGAGGCGGAAAGCUGACUUCAAAGCAGGGAAAGCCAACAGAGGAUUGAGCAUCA: 0.343 ratio
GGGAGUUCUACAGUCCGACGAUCACAUCAUCAGUUUUUCGAUUAGUUUCUAGACCCAAACCAUUAUCAGCAGUUCCAAAGCAAGUUGUAACAGGAACUGUGUUGACAAGAUCUGUUUUCAUCAACAAUGUGUUAUCUAAAAUUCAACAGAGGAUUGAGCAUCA: 1.19 ratio
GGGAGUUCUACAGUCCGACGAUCAAAAUUCGACUAAAACCAGAAACUCCUCGAAGUGAAACUUGUAUUUCUAAUGACUUUUAUUCUCAUAUGCCUGUUGGAGAGACUAAUCCUUUGAUAGGCUCUUUACUCCAGGAGCGGCAACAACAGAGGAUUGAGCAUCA: 0.414 ratio
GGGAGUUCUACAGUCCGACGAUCAACAAUUUAUCUUCAGUCACUAAUAUUAAUGUACAAAAGAUGUCUCAGCUUCUUUCUGUGUACCUAGAGGAAAACAAGCUAACUGAGCUGCCGGAAAAGUGUCUAUAUGGACUGAGCAACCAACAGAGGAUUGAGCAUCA: 0.986 ratio
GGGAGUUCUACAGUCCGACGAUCAGUUGUUUCUCCCUAACUCCCAACUCCCAACUCCCAAACUGCCUGCAUAUUUACUCUUCGUCAGUGCUAUCUUCUUGUAUGUCAUUGUGAGCAAGCUGUGAUGAAUAAAGAAUUGGAGUUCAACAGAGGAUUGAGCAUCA: 0.669 ratio
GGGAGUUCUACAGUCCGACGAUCAUGGCCCAUGUGCUCUGUAACAGAGCCAGACUGGUUUCCUAUCUCCCAGGAUUUUGUUCUUUAGUGAAAAGAGUCAUCAAUCCAAGAGCCUUUUCAACUGCAGGAUCUUCAGGUUCUGAUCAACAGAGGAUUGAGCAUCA: 0.108 ratio
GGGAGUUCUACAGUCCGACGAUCUAUUGUACCUCUACUCUGCGUCACUUCUUGCCUCUGUUAGAAAAAAGUCAAGGAGAAGAUGUAGAAGAUGACCACAGAGCAGAACUGCUAAAACAGCUGGGAGACUACAGGUUCUCUGGACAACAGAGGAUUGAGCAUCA: 0.23 ratio
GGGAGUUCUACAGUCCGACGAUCCCCGUGUAAACAUUCUUUUUCCAAGGGGGAAAAUGGUGUUAUUUACAUGAAUCGUGAUCAAAUAGCCUCUAAAAACAGUUUUCUAAGCAGGAGGCUCAGUGGAACUCCGAGCUCCGCUCCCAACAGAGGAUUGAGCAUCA: 0.196 ratio

Study 4 — method: protein binding microarray; form: double-stranded DNA, one strand shown; matrix: in vitro; concentration: not given; relative to: not given; reading: higher = stronger binding; quantity: E-score
Target: Histone acetyltransferase KAT6A, both winged helices, GST fusion (KAT6A, Homo sapiens, UniProt Q92794, residues 1-181)
Setting: 8-mer, flanks averaged, mean of 2 arrays, mostly near background
Residues (chain): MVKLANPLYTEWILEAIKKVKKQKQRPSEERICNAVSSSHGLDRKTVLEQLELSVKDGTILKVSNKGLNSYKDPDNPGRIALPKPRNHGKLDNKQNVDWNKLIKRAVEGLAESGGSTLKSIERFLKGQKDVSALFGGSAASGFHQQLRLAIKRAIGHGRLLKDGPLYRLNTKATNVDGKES
GGACCGAC: 0.133
GAATCCGC: 0.14
CCACGCCA: -0.215
AAGGATCT: -0.131
CCTCAGAA: -0.0888
GGAGAGAA: -0.144
AGGCTAGG: -0.25
GATTTATA: -0.0229
GTCGCTTA: 0.14
ATAGCCTC: -0.00752
AGAAGGTG: -0.23
GCTTACCC: -0.0149
AAGAGTGT: -0.175
CCTTGCAC: -0.143
GCTAAAGC: -0.00517
CTGCGGGA: 0.209
TGAGTGAA: -0.162
CCTCGGGA: 0.0267
TCTAGAGA: -0.213
AGATTTCG: 0.122
AGCACCCC: -0.0803
TATAAGGA: -0.0903
GACGCCGC: 0.358
ACACCCAA: -0.0906
CAATCAGG: 0.00361

Some of these lines once more (study 4):
CCTTGCAC: -0.143
GCTAAAGC: -0.00517
CTGCGGGA: 0.209
TGAGTGAA: -0.162
CCTCGGGA: 0.0267
TCTAGAGA: -0.213
AGATTTCG: 0.122
AGCACCCC: -0.0803
TATAAGGA: -0.0903
